Assay results pooled from the literature.
Lines come from different studies, so protocols differ. Numbers after ± are the reported error.

CC(C)[C@H](NC(=O)[C@@H](NC(=O)[C@H](CCCNC(=N)N)NC(=O)[C@H](CCCNC(=N)N)NC(=O)[C@H](CCCNC(=N)N)NC(=O)[C@H](CCC(N)=O)NC(=O)[C@H](CCCNC(=N)N)NC(=O)[C@H](CCCNC(=N)N)NC(=O)[C@H](CCCCN)NC(=O)[C@H](CCCCN)NC(=O)[C@H](CCCNC(=N)N)NC(=O)CN)[C@@H](C)O)C(=O)N[C@H](C(=O)N[C@@H](CO)C(=O)N1CCC[C@H]1C(=O)O)[C@@H](C)O
organ weight (ICR mice, male, brain; intranasal, 5 mg/kg daily, 4 weeks): 0.616 ± 0.073 g

CC[C@H](C)[C@H](NC(=O)CN)C(=O)N[C@@H](CCCNC(=N)N)C(=O)N[C@@H](CCCCN)C(=O)N[C@@H](Cc1c[nH]c2ccccc12)C(=O)N[C@@H](Cc1ccccc1)C(=O)N[C@@H](CCCCN)C(=O)N[C@@H](CCCCN)C(=O)N[C@@H](C)C(=O)N[C@@H](C)C(=O)N[C@@H](Cc1c[nH]cn1)C(=O)N[C@H](C(=O)NCC(=O)N[C@@H](CCCCN)C(=O)N[C@@H](CCC(=O)O)C(=O)N[C@H](C(=O)NCC(=O)N[C@@H](CCCCN)C(=O)N[C@H](C(=O)N[C@@H](C)C(=O)N[C@@H](CC(C)C)C(=O)N[C@@H](CC(N)=O)C(=O)N[C@@H](C)C(=O)N[C@@H](CS)C(=O)N[C@@H](CC(C)C)C(=O)O)C(C)C)C(C)C)C(C)C
chronic toxic concentration (zebrafish embryos 4 hpf, E3 medium; 24 h): 5 µM

CC[C@H](C)[C@H](NC(=O)[C@H](C)NC(=O)[C@H](CCCCN)NC(=O)[C@H](CCCCN)NC(=O)[C@@H](N)CCCNC(=N)N)C(=O)N[C@@H](CCCCN)C(=O)N[C@@H](CC(C)C)C(=O)N[C@H](C(=O)N[C@@H](CCCCN)C(=O)N[C@@H](CCCCN)C(=O)N[C@@H](CC(C)C)C(=O)N[C@H](C(=O)N[C@@H](CCCCN)C(=O)N[C@@H](CCCCN)C(=O)N[C@@H](CC(C)C)C(=O)N[C@@H](CCCCN)C(=O)N[C@@H](CCCCN)C(=O)N[C@@H](C)C(=O)N[C@@H](CC(C)C)C(=O)N[C@@H](CCCCN)C(=O)O)C(C)C)C(C)C
hemolysis (human red blood cells; 16 mg/L, 1 h, mean of replicates): 2.09%

CCN(CC)CCOc1ccc(-c2nnn(Cc3ccc(OC)cc3)c2N)cc1
remaining compound (monkey liver microsomes; concentration not given, time not given): 43.8%

CC[C@H](C)[C@H](NC(=O)[C@H](CCCCN)NC(=O)CNC(=O)[C@H](CC(C)C)NC(=O)[C@H](Cc1ccccc1)NC(=O)[C@H](CCCCN)NC(=O)[C@H](CO)NC(=O)[C@H](Cc1ccccc1)NC(=O)[C@H](Cc1c[nH]c2ccccc12)NC(=O)[C@H](CCC(N)=O)NC(=O)[C@@H](NC(=O)[C@H](Cc1ccccc1)NC(=O)CCCCCNC(=O)CN1CCN(CC(=O)O)CCN(CC(=O)O)CCN(CC(=O)O)CC1)C(C)C)C(=O)N[C@@H](CCC(=O)O)C(=O)N1CCC[C@H]1C(=O)N[C@@H](CC(=O)O)C(=O)N[C@H](C(=O)N[C@@H](CO)C(=O)N[C@@H](CCC(N)=O)C(=O)N[C@H](C(=O)N[C@@H](CCC(N)=O)C(=O)N[C@@H](CC(=O)O)C(=O)N1CCC[C@H]1C(=O)N[C@@H](CC(N)=O)C(=O)N[C@@H](CC(=O)O)C(=O)N[C@@H](CCC(N)=O)C(=O)N[C@@H](Cc1ccc(O)cc1)C(=O)N[C@@H](CCC(=O)O)C(=O)N1CCC[C@H]1C(=O)N[C@@H](Cc1ccccc1)C(=O)O)C(C)C)C(C)C [copper-64 labelled]
SUVmean (dynamic PET; mouse both sexes, CT26 tumour, untreated, tumour; intravenous, 100 µCi/mouse, 1050 s): 0.86 SUV

COC(=O)[C@H]1[C@@H](c2ccc(Cl)cc2)C[C@@H]2CC[C@H]1N2CCCc1ccc2cc3ccccc3cc2c1
pKa (fluorometric titration; 1 µM, 10% DMSO): 6.9

NC1CCN(C(=O)Oc2ccc(C3CCCC4(C3)OOC3(O4)C4CC5CC(C4)CC3C5)cc2)CC1 (racemic)
AUC(0-t) (male ICR mice, plasma; oral, 50 mg/kg): 6250 ng·h/mL

CCCCCCCCCCCCCCCC(=O)N[C@@H](CCC(=O)NCCOCCOCCC(=O)NCCOCCOCCC(=O)NCCCC[C@H](NC(=O)[C@H](CC(=O)O)NC(=O)[C@H](CC(C)C)NC(=O)[C@H](Cc1ccc(O)cc1)NC(=O)[C@H](CCCCN)NC(=O)[C@H](CO)NC(=O)[C@H](Cc1ccc(O)cc1)NC(=O)[C@H](CC(=O)O)NC(=O)[C@H](CO)NC(=O)[C@@H](NC(=O)[C@H](Cc1ccccc1)NC(=O)[C@@H](NC(=O)CNC(=O)[C@H](CCC(N)=O)NC(=O)[C@@H](CO)NC(=O)[C@@H](N)Cc1c[nH]cn1)[C@@H](C)O)[C@@H](C)O)C(=O)N[C@@H](CCCNC(=N)N)C(=O)N[C@@H](CCCNC(=N)N)C(=O)N[C@@H](C)C(=O)N[C@@H](CCC(N)=O)C(=O)N[C@@H](CC(=O)O)C(=O)N[C@@H](Cc1ccccc1)C(=O)N[C@H](C(=O)N[C@@H](CCC(N)=O)C(=O)N[C@@H](Cc1c[nH]c2ccccc12)C(=O)N[C@@H](CC(C)C)C(=O)N[C@@H](CC(C)C)C(=O)N[C@@H](CC(N)=O)C(=O)N[C@H](C(=O)NCC(=O)NCC(=O)N1CCC[C@H]1C(=O)N[C@@H](CO)C(=O)N[C@@H](CO)C(=O)NCC(=O)N[C@@H](C)C(=O)N1CCC[C@H]1C(=O)N1CCC[C@H]1C(=O)N1CCC[C@H]1C(=O)N[C@@H](CO)C(N)=O)[C@@H](C)O)C(C)C)C(=O)O
serum enzyme activity (item: AST; rhesus monkey, female; subcutaneous, 300 µg/kg once daily, 28 days): 42.6 ± 7.1 U/L

CSCC[C@H](NC(=O)CNC(=O)[C@H](CCCCN)NC(=O)[C@H](CC(C)C)NC(=O)[C@@H]1CCCN1C(=O)[C@H](CO)NC(=O)[C@H](Cc1c[nH]cn1)NC(=O)[C@H](Cc1c[nH]c2ccccc12)NC(=O)[C@H](CCCNC(=N)N)NC(=O)[C@H](CC(C)C)NC(=O)[C@H](CCCNC(=N)N)NC(=O)[C@H](Cc1c[nH]c2ccccc12)NC(=O)[C@H](CS)NC(=O)CCCCCNC(=O)CN1CCN(CC(=O)O)CCN(CC(=O)O)CCN(CC(=O)O)CC1)C(=O)O [copper-64 labelled]
tumour-to-blood ratio (C57BL/6J mice, B16-F10 tumour; intravenous, 1.85 MBq, 2 h; reference: tumour over blood): 2.98

CCCCCn1ccc(C(=O)NC(C)(C)c2ccc(CNC(C)=O)cc2)n1
peripheral selectivity ratio (mouse; dose not given; reference: plasma Cmax over brain Cmax): ~5 fold

CCCCCCCCCC(=O)N[C@@H](CCCNC(=N)N)C(=O)N[C@@H](Cc1c[nH]c2ccccc12)C(=O)N[C@@H](CCCCN)C(=O)N[C@H](C(=O)N[C@@H](Cc1ccccc1)C(=O)N[C@@H](CCCCN)C(=O)N[C@@H](CCCCN)C(=O)N[C@H](C(=O)N[C@@H](CCC(=O)O)C(=O)N[C@@H](CCCCN)C(=O)N[C@H](C(=O)NCC(=O)N[C@@H](CCC(N)=O)C(=O)N[C@@H](CC(N)=O)C(=O)N[C@H](C(=O)N[C@@H](CCCNC(=N)N)C(=O)N[C@@H](CC(=O)O)C(=O)NCC(=O)N[C@H](C(=O)N[C@H](C(=O)N[C@@H](CCCCN)C(=O)N[C@@H](C)C(=O)NCC(=O)N1CCC[C@H]1C(=O)N[C@@H](C)C(=O)N[C@H](C(=O)N[C@@H](C)C(=O)N[C@H](C(=O)N[C@H](C(=O)NCC(=O)N[C@@H](CCC(N)=O)C(=O)N[C@@H](C)C(=O)N[C@@H](C)C(=O)N[C@H](C(=O)N[C@H](C(N)=O)[C@@H](C)CC)[C@@H](C)O)C(C)C)C(C)C)C(C)C)C(C)C)[C@@H](C)CC)[C@@H](C)CC)C(C)C)[C@@H](C)CC)[C@@H](C)CC
helical content (CD spectroscopy; 50% TFE in water; room temperature): 41.7%

O=C1NC2(CC2)COc2ncc(F)cc2[C@H]2COCCN2c2ccn3ncc1c3n2
aspartate aminotransferase activity (Sprague-Dawley rat, male, serum; oral, 5 mg/kg/day, 4 weeks daily, end of recovery period): 92.6 ± 11.7 U/L

N#[11C]c1ccc(-c2csc(NN=C3CCCC3)n2)cc1
radioactivity uptake (C57BL/6 mice, male, brain; intravenous, 3 MBq, 60 min): 0.31 ± 0.09 %ID/g

A few entries again:
CC(C)[C@H](NC(=O)[C@@H](NC(=O)[C@H](CCCNC(=N)N)NC(=O)[C@H](CCCNC(=N)N)NC(=O)[C@H](CCCNC(=N)N)NC(=O)[C@H](CCC(N)=O)NC(=O)[C@H](CCCNC(=N)N)NC(=O)[C@H](CCCNC(=N)N)NC(=O)[C@H](CCCCN)NC(=O)[C@H](CCCCN)NC(=O)[C@H](CCCNC(=N)N)NC(=O)CN)[C@@H](C)O)C(=O)N[C@H](C(=O)N[C@@H](CO)C(=O)N1CCC[C@H]1C(=O)O)[C@@H](C)O
organ weight (ICR mice, male, brain; intranasal, 5 mg/kg daily, 4 weeks): 0.616 ± 0.073 g

CC[C@H](C)[C@H](NC(=O)[C@H](C)NC(=O)[C@H](CCCCN)NC(=O)[C@H](CCCCN)NC(=O)[C@@H](N)CCCNC(=N)N)C(=O)N[C@@H](CCCCN)C(=O)N[C@@H](CC(C)C)C(=O)N[C@H](C(=O)N[C@@H](CCCCN)C(=O)N[C@@H](CCCCN)C(=O)N[C@@H](CC(C)C)C(=O)N[C@H](C(=O)N[C@@H](CCCCN)C(=O)N[C@@H](CCCCN)C(=O)N[C@@H](CC(C)C)C(=O)N[C@@H](CCCCN)C(=O)N[C@@H](CCCCN)C(=O)N[C@@H](C)C(=O)N[C@@H](CC(C)C)C(=O)N[C@@H](CCCCN)C(=O)O)C(C)C)C(C)C
hemolysis (human red blood cells; 16 mg/L, 1 h, mean of replicates): 2.09%
